Measured values of several laboratories.
Parts stem from different laboratories: compare values within a part only.
Chain of UniProt P10721 (whole entry, unmodified, looked up): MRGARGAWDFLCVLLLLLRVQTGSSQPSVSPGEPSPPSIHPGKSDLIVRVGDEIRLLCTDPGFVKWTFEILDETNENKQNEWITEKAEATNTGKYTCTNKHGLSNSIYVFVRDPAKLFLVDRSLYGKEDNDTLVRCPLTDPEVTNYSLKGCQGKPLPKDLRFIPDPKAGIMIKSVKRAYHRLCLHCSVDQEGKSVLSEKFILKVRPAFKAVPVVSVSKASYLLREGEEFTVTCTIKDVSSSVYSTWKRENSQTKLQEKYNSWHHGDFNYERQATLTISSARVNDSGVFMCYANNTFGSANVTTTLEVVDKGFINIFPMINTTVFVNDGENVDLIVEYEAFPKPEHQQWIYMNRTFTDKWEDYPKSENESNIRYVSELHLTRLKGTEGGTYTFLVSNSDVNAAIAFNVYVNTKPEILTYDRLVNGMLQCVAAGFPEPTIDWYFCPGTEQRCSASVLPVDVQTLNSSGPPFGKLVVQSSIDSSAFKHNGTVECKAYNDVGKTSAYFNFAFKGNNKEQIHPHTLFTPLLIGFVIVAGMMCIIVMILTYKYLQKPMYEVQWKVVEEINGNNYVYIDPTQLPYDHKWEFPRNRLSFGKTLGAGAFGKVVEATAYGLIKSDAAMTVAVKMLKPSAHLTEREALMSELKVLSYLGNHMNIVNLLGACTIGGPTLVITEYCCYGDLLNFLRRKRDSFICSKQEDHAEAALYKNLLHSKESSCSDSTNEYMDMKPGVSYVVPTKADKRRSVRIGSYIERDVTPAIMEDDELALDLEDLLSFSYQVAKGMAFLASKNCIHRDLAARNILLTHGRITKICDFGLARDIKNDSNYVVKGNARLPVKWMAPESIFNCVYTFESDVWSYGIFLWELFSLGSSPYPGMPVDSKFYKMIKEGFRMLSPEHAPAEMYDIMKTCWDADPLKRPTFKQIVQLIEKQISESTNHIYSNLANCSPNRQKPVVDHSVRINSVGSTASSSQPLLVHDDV
Chain of UniProt O14578 (whole entry, looked up): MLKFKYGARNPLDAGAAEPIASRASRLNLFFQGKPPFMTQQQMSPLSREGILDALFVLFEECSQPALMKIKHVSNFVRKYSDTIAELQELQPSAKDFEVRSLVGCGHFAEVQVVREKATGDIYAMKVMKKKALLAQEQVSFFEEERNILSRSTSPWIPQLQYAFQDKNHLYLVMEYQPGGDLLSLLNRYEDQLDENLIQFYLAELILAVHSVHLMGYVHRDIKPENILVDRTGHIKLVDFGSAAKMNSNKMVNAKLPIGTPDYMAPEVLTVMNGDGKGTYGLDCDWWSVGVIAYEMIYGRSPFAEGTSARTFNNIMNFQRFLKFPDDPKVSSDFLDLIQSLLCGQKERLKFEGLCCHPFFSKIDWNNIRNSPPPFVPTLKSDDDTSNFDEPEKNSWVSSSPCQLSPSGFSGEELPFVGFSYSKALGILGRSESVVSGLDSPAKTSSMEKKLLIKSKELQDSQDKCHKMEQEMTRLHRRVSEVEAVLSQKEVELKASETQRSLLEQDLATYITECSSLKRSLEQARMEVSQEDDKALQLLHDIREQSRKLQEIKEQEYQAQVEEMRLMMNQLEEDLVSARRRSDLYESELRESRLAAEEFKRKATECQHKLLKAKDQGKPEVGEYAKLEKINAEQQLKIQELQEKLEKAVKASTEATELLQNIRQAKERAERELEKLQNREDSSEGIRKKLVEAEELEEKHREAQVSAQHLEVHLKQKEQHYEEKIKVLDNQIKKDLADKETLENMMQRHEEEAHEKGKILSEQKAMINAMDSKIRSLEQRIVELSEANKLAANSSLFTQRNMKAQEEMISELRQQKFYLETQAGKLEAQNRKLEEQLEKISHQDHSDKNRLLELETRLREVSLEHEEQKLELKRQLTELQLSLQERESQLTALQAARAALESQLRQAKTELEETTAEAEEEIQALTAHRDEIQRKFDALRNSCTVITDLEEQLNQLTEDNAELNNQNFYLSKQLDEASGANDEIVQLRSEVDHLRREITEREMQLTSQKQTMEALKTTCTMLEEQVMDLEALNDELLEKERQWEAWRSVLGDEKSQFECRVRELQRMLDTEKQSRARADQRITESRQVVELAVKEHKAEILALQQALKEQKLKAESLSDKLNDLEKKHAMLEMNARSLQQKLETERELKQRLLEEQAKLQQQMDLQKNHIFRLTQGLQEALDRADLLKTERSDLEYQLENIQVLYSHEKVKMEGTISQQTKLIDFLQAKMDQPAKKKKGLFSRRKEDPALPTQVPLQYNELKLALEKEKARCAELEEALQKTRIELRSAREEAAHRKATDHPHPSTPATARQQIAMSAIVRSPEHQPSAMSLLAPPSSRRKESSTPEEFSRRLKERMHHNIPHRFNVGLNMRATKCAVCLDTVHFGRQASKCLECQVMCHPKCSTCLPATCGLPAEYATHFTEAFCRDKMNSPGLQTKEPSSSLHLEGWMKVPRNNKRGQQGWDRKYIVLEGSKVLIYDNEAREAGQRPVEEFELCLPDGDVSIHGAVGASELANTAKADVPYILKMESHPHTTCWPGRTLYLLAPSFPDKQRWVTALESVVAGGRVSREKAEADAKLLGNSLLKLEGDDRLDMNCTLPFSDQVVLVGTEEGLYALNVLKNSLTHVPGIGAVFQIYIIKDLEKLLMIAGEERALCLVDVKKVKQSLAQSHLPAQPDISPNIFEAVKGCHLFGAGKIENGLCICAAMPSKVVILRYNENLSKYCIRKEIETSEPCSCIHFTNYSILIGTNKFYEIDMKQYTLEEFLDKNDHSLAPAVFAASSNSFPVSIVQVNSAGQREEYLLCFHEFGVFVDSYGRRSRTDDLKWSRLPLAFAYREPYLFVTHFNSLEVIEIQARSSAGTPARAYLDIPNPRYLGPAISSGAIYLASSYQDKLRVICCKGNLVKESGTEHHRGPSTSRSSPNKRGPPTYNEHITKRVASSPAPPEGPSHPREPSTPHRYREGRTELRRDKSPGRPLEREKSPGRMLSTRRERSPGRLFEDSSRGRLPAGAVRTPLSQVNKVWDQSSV
Chain of UniProt Q9HAZ1 (whole entry, looked up): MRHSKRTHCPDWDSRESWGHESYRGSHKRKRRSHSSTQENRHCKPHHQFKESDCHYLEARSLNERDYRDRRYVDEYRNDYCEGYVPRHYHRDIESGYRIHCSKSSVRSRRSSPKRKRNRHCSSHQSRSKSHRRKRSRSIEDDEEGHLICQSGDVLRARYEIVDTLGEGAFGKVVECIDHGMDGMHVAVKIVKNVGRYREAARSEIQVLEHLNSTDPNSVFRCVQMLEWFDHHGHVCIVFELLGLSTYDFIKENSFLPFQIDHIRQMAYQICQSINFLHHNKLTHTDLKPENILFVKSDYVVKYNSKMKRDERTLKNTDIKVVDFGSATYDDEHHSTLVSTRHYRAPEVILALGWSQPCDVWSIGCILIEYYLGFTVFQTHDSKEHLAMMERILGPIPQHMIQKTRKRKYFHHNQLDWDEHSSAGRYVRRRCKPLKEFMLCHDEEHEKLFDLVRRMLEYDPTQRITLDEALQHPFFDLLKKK
Chain of UniProt Q13976 (whole entry, looked up): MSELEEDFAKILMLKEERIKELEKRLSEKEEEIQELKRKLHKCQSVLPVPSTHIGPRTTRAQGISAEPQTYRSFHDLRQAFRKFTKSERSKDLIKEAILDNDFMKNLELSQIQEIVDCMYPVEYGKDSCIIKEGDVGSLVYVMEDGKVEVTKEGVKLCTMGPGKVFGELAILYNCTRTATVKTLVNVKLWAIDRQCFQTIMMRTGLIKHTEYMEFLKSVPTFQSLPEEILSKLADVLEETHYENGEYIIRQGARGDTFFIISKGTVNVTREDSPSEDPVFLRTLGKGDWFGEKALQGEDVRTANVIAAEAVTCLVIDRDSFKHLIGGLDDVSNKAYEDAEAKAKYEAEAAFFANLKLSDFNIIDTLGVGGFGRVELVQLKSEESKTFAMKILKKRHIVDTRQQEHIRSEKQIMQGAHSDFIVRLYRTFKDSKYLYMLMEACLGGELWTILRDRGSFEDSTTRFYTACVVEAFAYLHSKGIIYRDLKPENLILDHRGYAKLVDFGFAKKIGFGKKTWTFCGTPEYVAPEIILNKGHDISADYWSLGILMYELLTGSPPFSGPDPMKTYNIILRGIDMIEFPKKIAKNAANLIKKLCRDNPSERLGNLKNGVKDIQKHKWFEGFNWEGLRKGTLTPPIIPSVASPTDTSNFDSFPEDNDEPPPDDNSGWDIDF
Chain of UniProt P48729 (whole entry, looked up): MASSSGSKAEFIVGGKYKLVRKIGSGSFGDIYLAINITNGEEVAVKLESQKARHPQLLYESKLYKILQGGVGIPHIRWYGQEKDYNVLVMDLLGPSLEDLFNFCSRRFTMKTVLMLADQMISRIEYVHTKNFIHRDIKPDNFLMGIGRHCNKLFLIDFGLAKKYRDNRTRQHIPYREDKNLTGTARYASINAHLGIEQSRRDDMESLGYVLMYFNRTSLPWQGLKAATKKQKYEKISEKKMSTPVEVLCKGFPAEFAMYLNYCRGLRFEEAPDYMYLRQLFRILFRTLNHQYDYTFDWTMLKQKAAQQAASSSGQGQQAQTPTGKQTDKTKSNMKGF

Series 1
Structure (SMILES): CN1CCN(c2cnc3c(C4CCN(C(=O)c5ccc(OC(F)(F)F)cc5N)CC4)ncnc3c2)CC1
Effect on: cell-free assay
Method: competition with immobilised ligand
Tested at: 1 µM
Quantity: remaining binding
SRMS (Homo sapiens, UniProt Q9H3Y6): 100%
NTRK2 (Homo sapiens, UniProt Q16620): 100%
DDR1 (Homo sapiens, UniProt Q08345): 100%
CLK4 (Homo sapiens, UniProt Q9HAZ1): 98%
PKN1 (Homo sapiens, UniProt Q16512): 100%
KIT (Homo sapiens, UniProt P10721, L576P): 95%
KIT (Homo sapiens, UniProt P10721, V559D/V654A): 84%
NLK (Homo sapiens, UniProt Q9UBE8): 100%
CIT (Homo sapiens, UniProt O14578): 100%
PRKG1 (Homo sapiens, UniProt Q13976): 83%
CSNK1A1 (Homo sapiens, UniProt P48729): 91%

Series 2
Target: Serine/threonine-protein kinase NLK (NLK, Homo sapiens, UniProt Q9UBE8)
Effect on: enzyme activity
Mode: inhibitor
Tested at: 0.5 µM
Reference: control
Quantity: remaining activity
Construct (Q9UBE8 1-527): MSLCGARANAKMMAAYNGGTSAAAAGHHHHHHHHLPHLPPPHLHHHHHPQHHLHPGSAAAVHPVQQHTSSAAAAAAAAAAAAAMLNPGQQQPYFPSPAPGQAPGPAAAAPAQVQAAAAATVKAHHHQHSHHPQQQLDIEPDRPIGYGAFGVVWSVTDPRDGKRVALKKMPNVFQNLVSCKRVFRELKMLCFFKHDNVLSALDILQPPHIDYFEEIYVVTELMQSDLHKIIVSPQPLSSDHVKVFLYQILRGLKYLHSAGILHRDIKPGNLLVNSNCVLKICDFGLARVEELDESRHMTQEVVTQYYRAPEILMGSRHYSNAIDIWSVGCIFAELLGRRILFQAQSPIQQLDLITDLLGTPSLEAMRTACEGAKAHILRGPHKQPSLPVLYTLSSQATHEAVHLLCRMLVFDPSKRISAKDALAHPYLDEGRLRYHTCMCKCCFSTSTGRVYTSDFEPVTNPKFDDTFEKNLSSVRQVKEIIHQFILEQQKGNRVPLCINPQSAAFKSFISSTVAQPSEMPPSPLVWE
Cc1ccc(Nc2nccc(N(C)c3ccc4c(C)n(C)nc4c3)n2)cc1S(N)(=O)=O: 69%
NCCNc1ncc(C(N)=O)c(Nc2cccc(C(F)(F)F)c2)n1: 91.9%
Cn1sc(=O)n(Cc2ccccc2)c1=O: 105%
O=C1NC(=O)C(c2cn(CCCO)c3ncccc23)=C1c1cnccn1: 91.2%
CO[C@H]1C[C@@H]2CC[C@@H](C)[C@@](O)(O2)C(=O)C(=O)N2CCCC[C@H]2C(=O)O[C@H]([C@H](C)C[C@@H]2CC[C@@H](O)[C@H](OC)C2)CC(=O)[C@H](C)/C=C(\C)[C@@H](O)[C@@H](OC)C(=O)[C@H](C)C[C@H](C)/C=C/C=C/C=C/1C: 97.3%
O=C(O)c1ccc2c3c1cccc3c(=O)n1c3ccccc3nc21: 96.1%
CNC(=O)c1cc(Oc2ccc(NC(=O)Nc3ccc(Cl)c(C(F)(F)F)c3)cc2)ccn1: 99.1%
Oc1ccc(-c2nc(-c3ccncc3)c(-c3ccc(F)cc3)[nH]2)cc1: 46.1%
Nc1ccc2ncnc(NCCc3ccc(Oc4ccccc4)cc3)c2c1: 104%
COc1cc2ncnc(Nc3ccc(F)c(Cl)c3)c2cc1OCCCN1CCOCC1: 91.1%
Nc1ncnc2n[nH]c(Nc3ccc(F)cc3)c12: 95.4%
C#Cc1cccc(Nc2ncnc3cc(OCCOC)c(OCCOC)cc23)c1: 103%
COc1cc2ncnc(Nc3ccc(Oc4ccccc4)cc3)c2cc1OC: 100%
O=C(CCCc1ccc(-c2ccccc2F)cc1)Nc1ccc(O)cc1: 101%
CC(C)[C@H](CO)Nc1nc(Nc2cc(N)cc(Cl)c2)c2ncn(C(C)C)c2n1: 93.9%
O=C1NC(=O)C(c2cn(CCCn3ccnc3)c3ccccc23)=C1Nc1ccccc1: 97%

Series 3
Target: Sal-like protein 4, full length isoform B (SALL4, Homo sapiens, UniProt Q9UJQ4-2, residues 1-616)
Method: universal PBM
Molecule type: double-stranded DNA, one strand shown
Sample: in vitro
Tested at: not given
Setting: 8-mer, flanks averaged, mean of replicates
Reading: higher = stronger binding
Quantity: E-score
CCAACAAC: -0.137
CCCATGCG: -0.22
AAGAAAGT: 0.157
CCTACGGA: -0.164
CATGTCTC: 0.0533
CCGACATC: -0.166
AGACGATA: 0.218
ACGACCAT: -0.103

Series 4
Target: Ras GTPase-activating protein-binding protein 1, full length (G3BP1, Homo sapiens, UniProt Q13283)
Chain of UniProt Q13283 (whole entry, looked up): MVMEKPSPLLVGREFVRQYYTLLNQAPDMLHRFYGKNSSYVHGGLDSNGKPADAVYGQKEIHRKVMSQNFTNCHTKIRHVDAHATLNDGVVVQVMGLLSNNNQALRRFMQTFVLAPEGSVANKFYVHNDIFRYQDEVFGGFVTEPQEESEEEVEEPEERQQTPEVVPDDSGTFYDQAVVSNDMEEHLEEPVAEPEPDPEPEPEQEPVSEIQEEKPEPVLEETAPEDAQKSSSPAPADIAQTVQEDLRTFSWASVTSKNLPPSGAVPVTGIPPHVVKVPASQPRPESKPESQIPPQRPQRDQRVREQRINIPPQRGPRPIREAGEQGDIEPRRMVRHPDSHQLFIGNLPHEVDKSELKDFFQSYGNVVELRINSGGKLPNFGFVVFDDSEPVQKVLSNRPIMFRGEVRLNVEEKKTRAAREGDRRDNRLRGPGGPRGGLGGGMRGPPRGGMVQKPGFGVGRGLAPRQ
Method: RNA Bind-n-Seq
Molecule type: RNA
Sample: in vitro
Tested at: 200 nM
Setting: whole 134-nt RNA, ends assumed
With: 150 mM KCl
Reference: input library
Reading: higher = stronger binding
Quantity: log2 enrichment
All sequences stand within: GGGAGUUCUACAGUCCGACGAUC … UGGAAUUCUCGGGUGUCAAGG
GUCCUGUGCUACACAUCGUAUGUACCGAAUCAAAUUUUUAAAUUUAAACCCCCCCAAAAAAGUAUUAUGUUACGCCGUUCGGAUCUGCAC: 0.0575
UCCUGUGCUACACAUCGUAUGUACCGAAUCGGGAAAAAAAGGGUUUGGGAAAAAAAGGGAAAGUAUUAUGUUACGCCGUUCGGAUCUGCA: -0.569
AGUCCUGUGCUACACAUCGUAUGUACCGAAUCAAAUUUAAACCCAAAUUUUUUUAAAAAAGUAUUAUGUUACGCCGUUCGGAUCUGCACU: -0.503
CAAGUCCUGUGCUACACAUCGUAUGUACCGAAUCGGGUUUGGGGUUUGGGUUUGGAAAGUAUUAUGUUACGCCGUUCGGAUCUGCACUUC: -0.188
CACAGACAACACGCACCCACACAGACACAGAGGGAAGGGGUUGGGAUGGGGACAGGGUGCACAACAGGGCGGGGUAGGACCCCAGCCCCU: 1.94
ACCCUGCAGGUGGGCAUCUUUGGGAAGUGGGGCAAGGGGGGGAUAGGGAGGGGGGUAACACUUUGGGAACAGGUGGUCCCAGGUCGUUUC: 1.39
CCUGUGCUACACAUCGUAUGUACCGAAUCGGGCCCCCCCGGGGCCCCCCCGGCCCCCCCGGAAAGUAUUAUGUUACGCCGUUCGGAUCUG: -0.283
GUCCUGUGCUACACAUCGUAUGUACCGAAUCGGGAAAAAAGGGAAAAAAGGAAAAAAGGAAAGUAUUAUGUUACGCCGUUCGGAUCUGCA: -0.611

Excerpt of the above (series 1):
CLK4 (Homo sapiens, UniProt Q9HAZ1): 98%
PKN1 (Homo sapiens, UniProt Q16512): 100%
KIT (Homo sapiens, UniProt P10721, L576P): 95%
